Published values collected from several papers.
Each line is one published result; not all experiments were run side by side. Values joined by “and” are separate records of one study, mostly repeats; a detail may differ.
Target: Ephrin type-B receptor 1 (EPHB1, Homo sapiens, UniProt P54762)

SMILES = C=CC(=O)N1CCCC(n2c(=O)c3ncccc3n(Cc3ccc(Oc4ccccc4)cc3)c2=O)C1 (centres unmarked); effect on = cell-free assay; technique = competition with immobilised ligand; concentration = 1 µM; endpoint = remaining binding; result = 78%
SMILES = NC(=O)[C@@H](O)C[C@H]1CCc2sc3ncnc(O[C@H]4CC[C@H](N5CCOCC5)CC4)c3c21; effect on = enzyme activity; mode = inhibitor; concentration = 10 µM; endpoint = inhibition; result = 24%
SMILES = O=C(Cc1ccc(OCc2ccccc2)cc1)NC1(C(=O)O)CCN(C(=O)c2ccc(-c3cccc(Cl)c3)cc2)CC1; effect on = enzyme activity; mode = inhibitor; concentration = 10 µM; endpoint = activity vs control; result = 142%
SMILES = COc1c(Cl)cccc1Nc1c(-c2ccncc2C#C[C@@]2(C)CCCN2C(=O)/C=C/CN(C)C)[nH]c2c1C(=O)NCC2; effect on = cell-free assay; technique = competition with immobilised ligand; concentration = 3 µM; endpoint = remaining binding; result = 90%
SMILES = C=CC(=O)Nc1cccc(-c2cnc3[nH]cc(C(=O)NC(C)(C)C)c3n2)c1; effect on = kinase activity; concentration = 0.1 µM; endpoint = inhibition; result = -5% and 0%
SMILES = COc1c(OCCCN2CCOCC2)ccc2c1N=C(NC(=O)c1cnc(N)nc1)N1CCN=C21; effect on = kinase activity; mode = inhibitor; concentration = 1 µM; reference = untreated control; endpoint = remaining activity; result = 86%
SMILES = COCC12C(=O)NC3C4(C(OC)CC1O)C1CC5(O)C(OC)C(O)C(OC(C)=O)(C1C5OC(=O)c1ccccc1)C3(O)C(OC)C24 (centres unmarked); effect on = kinase activity; mode = inhibitor; technique = ProQinase kinase profiling; concentration = 25 µM; reference = control; endpoint = remaining activity; result = 108%
SMILES = CN1CCN(Cc2ccc(-c3ccc(CO[C@H]4CCC[C@@H]4NC(=O)c4cc(-c5cnn(C)c5)cnc4N)cc3)cc2)CC1; effect on = enzyme activity; mode = inhibitor; concentration = 0.1 µM; endpoint = inhibition; result = 2%
SMILES = C=CC(=O)N1CCc2ccc(-n3c(=O)ccc4cnc5ccc(-c6cnn(C)c6)cc5c43)cc21; technique = KINOMEscan; concentration = 1 µM; reference = DMSO control; endpoint = remaining binding; result = 100%
SMILES = Cc1ccc(-c2c(/C=C(\C#N)C(=O)NC(C)C)n(CCCO)c3ncnc(N)c23)cc1; effect on = cell-free assay; technique = competition with immobilised ligand; concentration = 1 µM; endpoint = remaining binding; result = 66%
SMILES = Cc1cccc(O[C@H]2CCC[C@@H](C(C)CNCc3ccncc3)C2)c1 (relative stereo); effect on = cell-free assay; concentration = 10 µM; endpoint = inhibition; result = -5%
SMILES = CNC(=O)C[C@H](Cc1ccc(C#N)cc1)NC(=O)c1cc(-c2ccc(CN[C@H](C)c3ccc(C)cc3)o2)ccc1Cl; effect on = enzyme activity; mode = inhibitor; concentration = 1 µM; endpoint = activity vs control; result = 123%
SMILES = CNC1C[S+]2CC[S+]3CC[S+](C1)[Ru-4]321([N]=C=S)[n]2c3ccc(OC)cc3c3c4c(c5cc(F)c[n+]1c5c32)C(=O)NC4=O (centres unmarked); technique = KinomeScan; concentration = 0.1 µM; reference = untreated; endpoint = remaining binding; result = 100%
SMILES = COc1cc(Nc2nc(C)cc(-c3cnn4nc(OC)ccc34)n2)cc(C(F)(F)F)c1; mode = inhibitor; concentration = 1 µM; reference = control; endpoint = remaining activity; result = 85%

Repeated from above:
SMILES = C=CC(=O)N1CCc2ccc(-n3c(=O)ccc4cnc5ccc(-c6cnn(C)c6)cc5c43)cc21; technique = KINOMEscan; concentration = 1 µM; reference = DMSO control; endpoint = remaining binding; result = 100%
